Measurements gathered from unrelated publications.
± marks the error that the study gave.
DRD4: D(4) dopamine receptor (DRD4, Homo sapiens, UniProt P21917)
Sequence of UniProt P21917 (whole entry, looked up): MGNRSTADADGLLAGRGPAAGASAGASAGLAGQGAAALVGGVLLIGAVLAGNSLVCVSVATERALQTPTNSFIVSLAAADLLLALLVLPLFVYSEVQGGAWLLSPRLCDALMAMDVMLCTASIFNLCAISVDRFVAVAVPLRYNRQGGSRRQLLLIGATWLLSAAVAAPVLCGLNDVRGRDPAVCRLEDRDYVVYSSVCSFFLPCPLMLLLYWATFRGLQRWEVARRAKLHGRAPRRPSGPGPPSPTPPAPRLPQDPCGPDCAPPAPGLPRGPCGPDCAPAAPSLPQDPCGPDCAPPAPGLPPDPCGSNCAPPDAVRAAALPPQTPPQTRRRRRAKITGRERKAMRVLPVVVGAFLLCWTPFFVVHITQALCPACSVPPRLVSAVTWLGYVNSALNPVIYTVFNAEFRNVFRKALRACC
CA2: Carbonic anhydrase 2 (CA2, Homo sapiens, UniProt P00918)
HTR2C: 5-hydroxytryptamine receptor 2C (HTR2C, Homo sapiens, UniProt P28335)
Sequence of UniProt P28335 (whole entry, looked up): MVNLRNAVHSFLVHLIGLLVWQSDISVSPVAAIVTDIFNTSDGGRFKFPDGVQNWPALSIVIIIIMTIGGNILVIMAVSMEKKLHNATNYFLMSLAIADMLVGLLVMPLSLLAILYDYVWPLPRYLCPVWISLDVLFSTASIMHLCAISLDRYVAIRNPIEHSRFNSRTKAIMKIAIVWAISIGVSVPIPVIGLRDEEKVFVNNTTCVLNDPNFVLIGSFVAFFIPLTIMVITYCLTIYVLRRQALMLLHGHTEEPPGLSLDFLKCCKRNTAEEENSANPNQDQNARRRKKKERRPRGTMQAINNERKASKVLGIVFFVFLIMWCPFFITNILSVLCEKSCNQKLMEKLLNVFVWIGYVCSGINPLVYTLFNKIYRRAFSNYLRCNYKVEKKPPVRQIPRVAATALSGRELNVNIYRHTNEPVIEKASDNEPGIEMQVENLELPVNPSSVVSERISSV
Chymotrypsin-C: Chymotrypsin-C (Homo sapiens, UniProt Q99895)
Sequence of UniProt Q99895 (whole entry, looked up): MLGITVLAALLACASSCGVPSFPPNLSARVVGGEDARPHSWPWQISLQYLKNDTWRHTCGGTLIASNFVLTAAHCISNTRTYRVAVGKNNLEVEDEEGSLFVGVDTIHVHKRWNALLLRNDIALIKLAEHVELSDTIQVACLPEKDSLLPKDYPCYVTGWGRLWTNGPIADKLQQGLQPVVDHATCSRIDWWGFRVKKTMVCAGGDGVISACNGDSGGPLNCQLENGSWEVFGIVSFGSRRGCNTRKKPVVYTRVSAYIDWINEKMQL
Sequence of UniProt O43570 (whole entry, looked up): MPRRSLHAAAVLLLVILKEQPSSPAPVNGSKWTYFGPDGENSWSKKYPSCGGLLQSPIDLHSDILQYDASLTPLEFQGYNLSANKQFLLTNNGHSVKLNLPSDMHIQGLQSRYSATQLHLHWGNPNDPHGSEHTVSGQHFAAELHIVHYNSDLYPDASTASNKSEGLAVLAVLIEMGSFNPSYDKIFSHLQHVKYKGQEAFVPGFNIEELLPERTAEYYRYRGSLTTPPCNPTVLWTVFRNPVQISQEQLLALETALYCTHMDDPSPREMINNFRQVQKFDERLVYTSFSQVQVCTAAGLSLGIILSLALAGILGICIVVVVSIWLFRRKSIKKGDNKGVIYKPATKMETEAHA
Sequence of UniProt P47901 (whole entry, looked up): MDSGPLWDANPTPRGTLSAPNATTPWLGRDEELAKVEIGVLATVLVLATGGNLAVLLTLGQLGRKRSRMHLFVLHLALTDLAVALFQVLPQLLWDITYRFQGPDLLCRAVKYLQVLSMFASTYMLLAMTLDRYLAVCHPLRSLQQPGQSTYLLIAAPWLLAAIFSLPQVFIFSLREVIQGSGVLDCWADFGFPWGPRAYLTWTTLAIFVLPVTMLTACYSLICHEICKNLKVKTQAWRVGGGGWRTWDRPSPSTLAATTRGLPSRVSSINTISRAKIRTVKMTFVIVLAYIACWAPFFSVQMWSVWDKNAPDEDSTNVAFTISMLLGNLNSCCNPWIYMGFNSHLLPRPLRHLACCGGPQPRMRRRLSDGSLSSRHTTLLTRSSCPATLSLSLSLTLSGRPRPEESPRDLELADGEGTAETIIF
Sequence of UniProt Q07440 (whole entry, unmodified, looked up): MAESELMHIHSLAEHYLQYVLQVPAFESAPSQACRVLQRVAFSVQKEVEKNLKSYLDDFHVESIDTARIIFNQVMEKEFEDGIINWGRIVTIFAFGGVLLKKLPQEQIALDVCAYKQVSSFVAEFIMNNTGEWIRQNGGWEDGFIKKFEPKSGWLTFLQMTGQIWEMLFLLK
Sequence of UniProt P41143 (whole entry, unmodified, looked up): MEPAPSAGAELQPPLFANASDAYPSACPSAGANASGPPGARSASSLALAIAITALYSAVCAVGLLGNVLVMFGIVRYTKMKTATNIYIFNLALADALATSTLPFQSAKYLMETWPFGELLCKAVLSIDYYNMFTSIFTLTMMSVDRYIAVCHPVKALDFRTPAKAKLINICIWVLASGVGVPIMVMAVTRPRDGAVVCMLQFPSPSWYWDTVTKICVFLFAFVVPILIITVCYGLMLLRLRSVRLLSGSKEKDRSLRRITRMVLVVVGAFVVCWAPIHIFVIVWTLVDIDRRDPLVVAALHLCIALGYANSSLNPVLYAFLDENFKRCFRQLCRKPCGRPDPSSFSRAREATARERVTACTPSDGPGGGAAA
Sequence of UniProt P12821 (whole entry, looked up): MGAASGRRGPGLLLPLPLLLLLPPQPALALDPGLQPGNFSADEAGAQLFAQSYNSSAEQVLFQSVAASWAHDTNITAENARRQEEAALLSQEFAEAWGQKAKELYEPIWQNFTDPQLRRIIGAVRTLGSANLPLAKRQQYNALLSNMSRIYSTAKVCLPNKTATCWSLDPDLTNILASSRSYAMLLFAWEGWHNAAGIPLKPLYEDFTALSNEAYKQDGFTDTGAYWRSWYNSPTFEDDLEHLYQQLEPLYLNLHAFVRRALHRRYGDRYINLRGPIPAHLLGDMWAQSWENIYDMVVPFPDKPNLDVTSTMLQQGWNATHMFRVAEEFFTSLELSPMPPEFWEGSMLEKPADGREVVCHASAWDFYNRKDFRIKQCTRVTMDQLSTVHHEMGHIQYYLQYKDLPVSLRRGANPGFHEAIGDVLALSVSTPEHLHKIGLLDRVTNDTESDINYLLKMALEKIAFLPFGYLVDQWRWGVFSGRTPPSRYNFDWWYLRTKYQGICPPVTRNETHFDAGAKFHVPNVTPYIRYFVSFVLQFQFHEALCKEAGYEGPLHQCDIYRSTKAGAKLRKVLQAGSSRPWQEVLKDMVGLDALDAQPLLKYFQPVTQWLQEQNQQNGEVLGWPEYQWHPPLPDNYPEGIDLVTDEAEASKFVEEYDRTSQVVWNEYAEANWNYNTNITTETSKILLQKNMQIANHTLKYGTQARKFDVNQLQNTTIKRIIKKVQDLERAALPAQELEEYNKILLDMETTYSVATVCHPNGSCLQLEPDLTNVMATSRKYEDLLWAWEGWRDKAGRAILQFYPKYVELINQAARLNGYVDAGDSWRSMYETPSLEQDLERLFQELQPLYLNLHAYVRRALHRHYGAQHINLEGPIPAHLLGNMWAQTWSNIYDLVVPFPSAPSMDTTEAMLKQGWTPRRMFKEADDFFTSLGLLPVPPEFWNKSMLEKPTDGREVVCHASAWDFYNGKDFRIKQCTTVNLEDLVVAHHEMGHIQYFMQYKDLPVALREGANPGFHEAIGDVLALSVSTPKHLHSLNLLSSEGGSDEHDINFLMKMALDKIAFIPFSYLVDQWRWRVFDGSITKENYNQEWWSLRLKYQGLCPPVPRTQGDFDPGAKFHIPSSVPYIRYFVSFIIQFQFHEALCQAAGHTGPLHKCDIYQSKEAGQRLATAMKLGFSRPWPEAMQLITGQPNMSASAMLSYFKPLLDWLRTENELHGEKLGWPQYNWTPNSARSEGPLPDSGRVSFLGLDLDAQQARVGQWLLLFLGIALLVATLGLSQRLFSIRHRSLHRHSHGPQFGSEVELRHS
Sequence of UniProt P47898 (whole entry, looked up): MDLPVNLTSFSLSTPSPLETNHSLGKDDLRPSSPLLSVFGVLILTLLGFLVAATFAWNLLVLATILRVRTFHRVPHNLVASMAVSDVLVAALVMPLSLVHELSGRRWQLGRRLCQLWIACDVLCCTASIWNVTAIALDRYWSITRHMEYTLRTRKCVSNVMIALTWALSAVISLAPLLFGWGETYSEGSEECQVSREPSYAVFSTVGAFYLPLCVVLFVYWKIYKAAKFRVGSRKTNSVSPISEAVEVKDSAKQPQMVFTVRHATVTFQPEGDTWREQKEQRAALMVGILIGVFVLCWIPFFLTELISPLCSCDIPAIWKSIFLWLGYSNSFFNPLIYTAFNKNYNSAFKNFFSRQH

SMILES	target	test	conditions	Ki [nM]
COc1ccccc1N1CCN(CCCCN2CCCc3ccccc3C2=O)CC1	DRD4	ligand displacement, radioligand	–	3.1
O=S(=O)(N/N=C/c1ccc(OS(=O)(=O)c2ccc(Br)cc2)cc1)c1cc(Cl)ccc1Cl	CA2	enzyme activity, inhibitor, absorbance	–	107
C[C@@H](Cc1ccsc1)NC(=O)NC[C@H](Cc1ccc(O)cc1)N(C)C	DRD4	–	–	20000 ± 4100
COc1c(C(C)C)cc2c(c1O)[C@@]1(C(=O)O)CCCC(C)(C)C1CC2 (some centres unmarked)	CA2	enzyme activity, inhibitor	–	4.5
O=S(=O)(N/N=C/c1ccc(OS(=O)(=O)c2cc(Cl)ccc2Cl)cc1)c1ccc(Cl)cc1	CA2	enzyme activity, inhibitor, absorbance	–	89.8
CC(C)[C@@H]1NC(=O)[C@H](Cc2ccccc2)NC(=O)[C@H](Cc2ccc(O)cc2)NC(=O)CCSSC[C@@H](C(=O)N2CCC[C@H]2C(=O)N[C@H](CCCNC(=N)N)C(=O)NCC(N)=O)NC(=O)[C@H](CC(N)=O)NC(=O)[C@H](C(C)C)NC(=O)[C@H](Cc2ccccc2)NC(=O)[C@H](Cc2ccc(O)cc2)NC(=O)CCSSC[C@@H](C(=O)N2CCC[C@H]2C(=O)N[C@H](CCCNC(=N)N)C(=O)NCC(N)=O)NC(=O)[C@H](CC(N)=O)NC1=O	Vasopressin V1b receptor (AVPR1B, Homo sapiens, UniProt P47901)	ligand displacement, radioligand	–	4.4
COc1c(O)cc2c3c1-c1ccccc1CC3N(C)CC2 (centres unmarked)	HTR2C	ligand displacement, radioligand	cell membranes	20.9
O=C1c2ccccc2CCCN1CCCCN1CCN(c2cccc(Cl)c2Cl)CC1	5-hydroxytryptamine receptor 5A (HTR5A, Homo sapiens, UniProt P47898)	ligand displacement, radioligand	–	809
Cc1cc(=O)oc2cc(OCCCCCC[Se]C#N)ccc12	CA2	enzyme activity, inhibitor, stopped-flow	–	> 100000
Cc1cc(O)cc(C)c1C[C@H](N)C(=O)N[C@H](CCCNC(=N)N)C(=O)N[C@@H](Cc1ccccc1)C(=O)N(C)CC(=O)N(C)Cc1cc(C(F)(F)F)cc(C(F)(F)F)c1	Delta-type opioid receptor (OPRD1, Homo sapiens, UniProt P41143, D210N)	–	–	90.8
NC(=O)CC[C@H](N)C(=O)N[C@@H](CC(N)=O)C(=O)N[C@@H](CC(=O)O)C(=O)N[C@@H](Cc1ccccc1)C(=O)O	Angiotensin-converting enzyme (ACE, Homo sapiens, UniProt P12821)	enzyme activity, inhibitor, absorbance	–	469000
CSCC[C@@H]1NC(=O)[C@H](C)NC(=O)[C@H](CO)NC(=O)[C@H](CCCCN)NC(=O)CNC(=O)[C@H](CC(=O)O)NC(=O)[C@H](CO)NC(=O)CNC(=O)[C@@H]2CSSC[C@H](NC(=O)[C@@H](NC(=O)[C@@H](NC(=O)[C@H](CCC(=O)O)NC(=O)[C@H](CO)NC(=O)CN)C(C)C)[C@@H](C)O)C(=O)N[C@@H](CCC(=O)O)C(=O)N3CCC[C@H]3C(=O)NCC(=O)N[C@@H]([C@@H](C)O)C(=O)N[C@@H]([C@@H](C)O)C(=O)N[C@@H](Cc3ccccc3)C(=O)N[C@@H](CCCCN)C(=O)N[C@@H](CC(=O)O)C(=O)N[C@@H](CCCCN)C(=O)N[C@H]3CSSC[C@@H](C(=O)N[C@@H](Cc4c[nH]c5ccccc45)C(=O)N[C@@H](CCC(N)=O)C(=O)O)NC(=O)[C@H](CC(C)C)NC(=O)[C@H](CCSC)NC(=O)[C@H](CC(C)C)NC(=O)[C@H](CO)NC(=O)[C@H](CSSC[C@H](NC(=O)[C@H]([C@@H](C)O)NC(=O)[C@H](CC(N)=O)NC3=O)C(=O)N[C@@H](CCCNC(=N)N)C(=O)N2)NC1=O	Chymotrypsin-C	enzyme activity, inhibitor	–	0.16 ± 0.02
COc1ccc(S(=O)(=O)Oc2ccc(/C=N/NS(=O)(=O)c3cc(Cl)ccc3Cl)cc2)cc1	CA2	enzyme activity, inhibitor, absorbance	–	17.8
NC1CCSC1=O (centres unmarked)	Carbonic anhydrase 12 (CA12, Homo sapiens, UniProt O43570)	CO2 hydration activity, inhibitor, stopped-flow CO2 hydration	room temperature preincubation	> 100000
CSCC[C@@H]1NC(=O)[C@H](CC(C)C)NC(=O)[C@H](Cc2c[nH]c3ccccc23)NC(=O)[C@@H]2CSSC[C@@H]3NC(=O)[C@H]([C@@H](C)O)NC(=O)[C@H](CC(N)=O)NC(=O)[C@H](CSSC[C@@H](C(=O)N[C@@H](CC(=O)O)C(=O)N[C@@H](CCC(N)=O)C(=O)O)NC(=O)[C@H](CC(C)C)NC1=O)NC(=O)[C@H](CCCCN)NC(=O)[C@H](CC(=O)O)NC(=O)[C@H](CCCCN)NC(=O)[C@H](Cc1ccccc1)NC(=O)[C@H]([C@@H](C)O)NC(=O)[C@H]([C@@H](C)O)NC(=O)CNC(=O)[C@@H]1CCCN1C(=O)[C@H](CCC(=O)O)NC(=O)[C@@H](NC(=O)[C@@H](NC(=O)[C@@H](NC(=O)[C@H](CCC(=O)O)NC(=O)[C@H](CO)NC(=O)CN)C(C)C)[C@@H](C)O)CSSC[C@H](NC(=O)[C@H](CCCNC(=N)N)NC3=O)C(=O)NCC(=O)N[C@@H](CO)C(=O)N[C@@H](CC(=O)O)C(=O)NCC(=O)N[C@@H](CCCCN)C(=O)N[C@@H](CO)C(=O)N[C@@H](C)C(=O)N[C@@H](C)C(=O)N2	Chymotrypsin-C	enzyme activity, inhibitor	–	13.9 ± 2.89
COc1cc2c(cc1O)C(CCc1ccc(Cl)cc1)N(C)CC2 (centres unmarked)	HTR2C	cell-free assay, radioligand	–	1400
CC(C)C[C@@H]1NC(=O)[C@H](CC(C)C)NC(=O)[C@H](CC(C)C)NC(=O)[C@H]([C@@H](C)O)NC(=O)[C@@H]2CSSC[C@@H]3NC(=O)[C@H]([C@@H](C)O)NC(=O)[C@H](CC(N)=O)NC(=O)[C@H](CSSC[C@@H](C(=O)N[C@@H](CC(=O)O)C(=O)N[C@@H](CCC(N)=O)C(=O)O)NC1=O)NC(=O)[C@H](CCCCN)NC(=O)[C@H](CC(=O)O)NC(=O)[C@H](CCCCN)NC(=O)[C@H](Cc1ccccc1)NC(=O)[C@H]([C@@H](C)O)NC(=O)[C@H]([C@@H](C)O)NC(=O)CNC(=O)[C@@H]1CCCN1C(=O)[C@H](CCC(=O)O)NC(=O)[C@@H](NC(=O)[C@@H](NC(=O)[C@@H](NC(=O)[C@H](CCC(=O)O)NC(=O)[C@H](CO)NC(=O)CN)C(C)C)[C@@H](C)O)CSSC[C@H](NC(=O)[C@H](CCCNC(=N)N)NC3=O)C(=O)NCC(=O)N[C@@H](CO)C(=O)N[C@@H](CC(=O)O)C(=O)NCC(=O)N[C@@H](CCCCN)C(=O)N[C@@H](CO)C(=O)N[C@@H](C)C(=O)N[C@@H](Cc1c[nH]c3ccccc13)C(=O)N2	Chymotrypsin-C	enzyme activity, inhibitor	–	2.09 ± 0.65
O=[N+]([O-])c1ccc2c(N=Nc3ccc4ccccc4c3O)c(O)cc(S(=O)(=O)O)c2c1	Bcl-2-related protein A1 (Mus musculus, UniProt Q07440, C113S/P104K)	ligand displacement, FP	–	16200
Cc1ccc(S(=O)(=O)Oc2ccc(/C=N/NS(=O)(=O)c3ccc(Cl)cc3)cc2)cc1	CA2	enzyme activity, inhibitor, absorbance	–	74.5
CSCC[C@@H]1NC(=O)[C@H](CC(C)C)NC(=O)[C@H]([C@@H](C)O)NC(=O)[C@@H]2CSSC[C@@H]3NC(=O)[C@H]([C@@H](C)O)NC(=O)[C@H](CC(N)=O)NC(=O)[C@H](CSSC[C@@H](C(=O)N[C@@H](CC(=O)O)C(=O)N[C@@H](CCC(N)=O)C(=O)O)NC(=O)[C@H](CC(C)C)NC1=O)NC(=O)[C@H](CCCCN)NC(=O)[C@H](CC(=O)O)NC(=O)[C@H](CCCCN)NC(=O)[C@H](Cc1ccccc1)NC(=O)[C@H]([C@@H](C)O)NC(=O)[C@H]([C@@H](C)O)NC(=O)CNC(=O)[C@@H]1CCCN1C(=O)[C@H](CCC(=O)O)NC(=O)[C@@H](NC(=O)[C@@H](NC(=O)[C@@H](NC(=O)[C@H](CCC(=O)O)NC(=O)[C@H](CO)NC(=O)CN)C(C)C)[C@@H](C)O)CSSC[C@H](NC(=O)[C@H](CCCNC(=N)N)NC3=O)C(=O)NCC(=O)N[C@@H](CO)C(=O)N[C@@H](CC(=O)O)C(=O)NCC(=O)N[C@@H](CCCCN)C(=O)N[C@@H](CO)C(=O)N[C@@H](C)C(=O)N[C@@H](C)C(=O)N2	Chymotrypsin-C	enzyme activity, inhibitor	–	0.05 ± 0.02

Some of these lines once more:
SMILES	target	test	conditions	Ki [nM]
CSCC[C@@H]1NC(=O)[C@H](CC(C)C)NC(=O)[C@H](Cc2c[nH]c3ccccc23)NC(=O)[C@@H]2CSSC[C@@H]3NC(=O)[C@H]([C@@H](C)O)NC(=O)[C@H](CC(N)=O)NC(=O)[C@H](CSSC[C@@H](C(=O)N[C@@H](CC(=O)O)C(=O)N[C@@H](CCC(N)=O)C(=O)O)NC(=O)[C@H](CC(C)C)NC1=O)NC(=O)[C@H](CCCCN)NC(=O)[C@H](CC(=O)O)NC(=O)[C@H](CCCCN)NC(=O)[C@H](Cc1ccccc1)NC(=O)[C@H]([C@@H](C)O)NC(=O)[C@H]([C@@H](C)O)NC(=O)CNC(=O)[C@@H]1CCCN1C(=O)[C@H](CCC(=O)O)NC(=O)[C@@H](NC(=O)[C@@H](NC(=O)[C@@H](NC(=O)[C@H](CCC(=O)O)NC(=O)[C@H](CO)NC(=O)CN)C(C)C)[C@@H](C)O)CSSC[C@H](NC(=O)[C@H](CCCNC(=N)N)NC3=O)C(=O)NCC(=O)N[C@@H](CO)C(=O)N[C@@H](CC(=O)O)C(=O)NCC(=O)N[C@@H](CCCCN)C(=O)N[C@@H](CO)C(=O)N[C@@H](C)C(=O)N[C@@H](C)C(=O)N2	Chymotrypsin-C	enzyme activity, inhibitor	–	13.9 ± 2.89
Cc1cc(=O)oc2cc(OCCCCCC[Se]C#N)ccc12	CA2	enzyme activity, inhibitor, stopped-flow	–	> 100000
